Measurements collected from several papers.
± marks the error that the study gave.
Sequence of UniProt P25103 (whole entry, looked up): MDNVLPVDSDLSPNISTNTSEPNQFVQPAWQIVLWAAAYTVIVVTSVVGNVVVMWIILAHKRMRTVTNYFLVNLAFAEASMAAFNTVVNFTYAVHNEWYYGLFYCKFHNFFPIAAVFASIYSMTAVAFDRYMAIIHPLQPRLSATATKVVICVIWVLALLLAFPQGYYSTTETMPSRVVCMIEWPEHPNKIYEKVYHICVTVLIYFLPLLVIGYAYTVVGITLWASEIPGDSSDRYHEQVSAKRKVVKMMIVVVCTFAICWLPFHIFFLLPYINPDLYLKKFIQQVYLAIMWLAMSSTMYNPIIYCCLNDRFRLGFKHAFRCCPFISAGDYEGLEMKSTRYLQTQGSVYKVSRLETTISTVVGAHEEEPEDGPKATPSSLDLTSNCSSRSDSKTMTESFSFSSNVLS
Sequence of UniProt P42679 (whole entry, looked up): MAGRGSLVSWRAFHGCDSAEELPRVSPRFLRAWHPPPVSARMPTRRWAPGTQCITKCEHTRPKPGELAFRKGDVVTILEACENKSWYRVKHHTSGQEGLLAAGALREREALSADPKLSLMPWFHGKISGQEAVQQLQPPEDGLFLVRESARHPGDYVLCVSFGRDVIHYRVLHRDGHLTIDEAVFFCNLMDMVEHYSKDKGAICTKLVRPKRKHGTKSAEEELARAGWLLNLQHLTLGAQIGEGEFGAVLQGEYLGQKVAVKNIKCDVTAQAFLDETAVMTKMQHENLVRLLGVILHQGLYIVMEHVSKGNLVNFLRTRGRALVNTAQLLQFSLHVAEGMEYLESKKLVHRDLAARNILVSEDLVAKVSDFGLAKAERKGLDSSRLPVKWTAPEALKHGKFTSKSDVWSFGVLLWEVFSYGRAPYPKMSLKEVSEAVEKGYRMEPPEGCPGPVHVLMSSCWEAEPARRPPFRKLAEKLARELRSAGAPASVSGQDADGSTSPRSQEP
Sequence of UniProt Q92887 (whole entry, looked up): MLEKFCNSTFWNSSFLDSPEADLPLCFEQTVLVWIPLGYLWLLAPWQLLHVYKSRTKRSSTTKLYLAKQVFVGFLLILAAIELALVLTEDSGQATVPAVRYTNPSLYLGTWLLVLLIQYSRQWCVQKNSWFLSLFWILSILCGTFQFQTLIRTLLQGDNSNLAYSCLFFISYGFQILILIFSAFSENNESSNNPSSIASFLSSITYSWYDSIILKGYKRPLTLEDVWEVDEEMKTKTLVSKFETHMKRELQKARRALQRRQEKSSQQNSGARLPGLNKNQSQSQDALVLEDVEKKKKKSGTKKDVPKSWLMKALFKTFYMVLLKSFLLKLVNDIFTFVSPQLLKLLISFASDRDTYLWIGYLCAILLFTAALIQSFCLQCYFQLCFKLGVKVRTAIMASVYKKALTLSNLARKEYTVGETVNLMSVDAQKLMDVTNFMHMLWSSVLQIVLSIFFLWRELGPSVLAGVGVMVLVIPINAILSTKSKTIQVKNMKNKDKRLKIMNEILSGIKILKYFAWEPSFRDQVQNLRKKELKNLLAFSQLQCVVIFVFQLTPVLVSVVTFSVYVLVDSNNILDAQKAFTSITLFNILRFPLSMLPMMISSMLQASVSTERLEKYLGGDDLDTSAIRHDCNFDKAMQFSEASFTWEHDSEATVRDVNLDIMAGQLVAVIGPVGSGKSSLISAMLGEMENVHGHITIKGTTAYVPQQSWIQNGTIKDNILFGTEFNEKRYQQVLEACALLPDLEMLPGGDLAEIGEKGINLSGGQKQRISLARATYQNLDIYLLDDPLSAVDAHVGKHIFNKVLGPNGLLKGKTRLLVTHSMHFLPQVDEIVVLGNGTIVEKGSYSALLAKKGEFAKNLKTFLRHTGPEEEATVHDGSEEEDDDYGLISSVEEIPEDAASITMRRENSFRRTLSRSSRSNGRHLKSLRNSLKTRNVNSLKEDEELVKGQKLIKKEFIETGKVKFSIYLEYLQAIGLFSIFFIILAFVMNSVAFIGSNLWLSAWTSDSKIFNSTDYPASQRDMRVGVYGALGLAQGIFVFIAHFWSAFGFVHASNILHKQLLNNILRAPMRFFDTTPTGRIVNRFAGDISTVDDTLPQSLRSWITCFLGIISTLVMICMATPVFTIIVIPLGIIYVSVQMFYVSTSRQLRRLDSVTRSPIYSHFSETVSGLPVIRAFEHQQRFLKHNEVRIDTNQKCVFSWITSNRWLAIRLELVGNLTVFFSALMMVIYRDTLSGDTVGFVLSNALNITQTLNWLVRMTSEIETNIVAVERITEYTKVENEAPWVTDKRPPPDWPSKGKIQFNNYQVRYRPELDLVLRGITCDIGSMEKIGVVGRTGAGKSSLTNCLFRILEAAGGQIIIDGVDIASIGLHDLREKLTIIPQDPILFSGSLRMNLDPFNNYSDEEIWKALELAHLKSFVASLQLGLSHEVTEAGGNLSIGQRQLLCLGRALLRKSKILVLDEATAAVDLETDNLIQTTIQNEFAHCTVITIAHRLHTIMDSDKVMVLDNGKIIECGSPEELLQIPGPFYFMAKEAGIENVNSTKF

For `CC[C@H](C)[C@H](NC(=O)[C@H](CCCNC(=N)N)NC(=O)[C@H](CCCCN)NC(=O)[C@H](Cc1ccc(O)cc1)NC(=O)[C@H](CC(=O)O)NC(=O)[C@H](C)NC(=O)CNC(=O)CCOCCOCCOCCNC(=O)CN1CCN(CC(=O)O)CCN(CC(=O)O)CCN(CC(=O)O)CC1)C(=O)N[C@H](C(=O)N[C@H](C(=O)N[C@@H](CCCCN)C(=O)N[C@H](C(=O)N[C@@H](CC(N)=O)C(N)=O)C(C)C)C(C)C)[C@@H](C)O` [copper-64 labelled], the tissue uptake was 1.59 ± 0.056 %ID/g (ex vivo gamma counting; C57BL/6J male mice, B16-F10 tumour, pancreas; intravenous, 1.85 MBq, 5 min).
`C[C@H](O)[C@@H](NC(=O)[C@H]1CCCN1C(=O)[C@@H](CCCCN)NC(=O)[C@@H](CO)NC(=O)[C@@H](Cc1ccc(O)cc1)NC(=O)[C@@H](CC(N)=O)NC(=O)CCOCCOCCOCCNC(=O)CN1CCN(CC(=O)O)CCN(CC(=O)O)CCN(CC(=O)O)CC1)C(=O)N[C@H](CC(=O)O)C(=O)N[C@H](CCCNC(=N)N)C(=O)N[C@H](CCC(N)=O)C(=O)N[C@H](Cc1ccc(O)cc1)C(=O)N[C@H](Cc1c[nH]cn1)C(=O)N[C@H](Cc1ccccc1)C(N)=O` [gallium-68 labelled] gave a tissue uptake of 0.26 ± 0.09 %ID/g (BALB/c nude mice U-87 MG tumour, bone; intravenous, 1.85 MBq, 1 h, radiolabelled).
With `CC[C@H](C)[C@H](NC(=O)[C@H](CCCCN)NC(=O)CNC(=O)[C@H](CC(C)C)NC(=O)[C@H](Cc1ccccc1)NC(=O)[C@H](CCCCN)NC(=O)[C@H](CO)NC(=O)[C@H](Cc1ccccc1)NC(=O)[C@H](Cc1c[nH]c2ccccc12)NC(=O)[C@H](CCC(N)=O)NC(=O)[C@@H](NC(=O)[C@H](Cc1ccccc1)NC(=O)CCCCCNC(=O)CN1CCN(CC(=O)O)CCN(CC(=O)O)CCN(CC(=O)O)CC1)C(C)C)C(=O)N[C@@H](CCC(=O)O)C(=O)N1CCC[C@H]1C(=O)N[C@@H](CC(=O)O)C(=O)N[C@H](C(=O)N[C@@H](CO)C(=O)N[C@@H](CCC(N)=O)C(=O)N[C@H](C(=O)N[C@@H](CCC(N)=O)C(=O)N[C@@H](CC(=O)O)C(=O)N1CCC[C@H]1C(=O)N[C@@H](CC(N)=O)C(=O)N[C@@H](CC(=O)O)C(=O)N[C@@H](CCC(N)=O)C(=O)N[C@@H](Cc1ccc(O)cc1)C(=O)N[C@@H](CCC(=O)O)C(=O)N1CCC[C@H]1C(=O)N[C@@H](Cc1ccccc1)C(=O)O)C(C)C)C(C)C` [copper-64 labelled] the tissue uptake was 0.97 ± 0.5 %ID/g (C57BL/6 mice, male, naive, white fat; 0.5 h).
For `COc1ccccc1-c1n[nH]c2nc(NC3CCN(C(=O)Cc4ccc(F)cc4F)CC3)ncc12`, the relative abundance was 0.13 (bead binding, competition bead pull-down, refers to: LINJ.09.0270; Leishmania donovani axenic amastigote extract; 10 µM; baseline: vehicle).
The tissue uptake of `CN(CCCO)Cc1ccc(-c2noc(-c3ccc(OCC[18F])c(C(F)(F)F)c3)n2)cc1F` is reported as 3.57 ± 0.17 %ID/g (Sprague-Dawley rats, male, kidney; 5 min post-injection).
For `Cc1ccccc1-c1ccc(-c2nc(-c3ccc(CN(C)CCCC(=O)O)c([18F])c3)no2)cc1C(F)(F)F`, the tissue uptake was 0.06 ± 0.03 %ID/g (Sprague Dawley rats, male, fat; 60 min).
With `CS(C)(=O)=Nc1ccc(-c2ccc(-c3nc4cc(O[C@@H]5CO[C@H]6[C@@H]5OC[C@H]6O)[nH]c4cc3F)cc2)cc1` the inhibition was 13% (TACR1 (Homo sapiens, UniProt P25103); calcium signal, antagonist; 10 µM).
`CN1Cc2cc(Cl)ccc2-n2c(nnc2C2CCN(c3cccc([18F])n3)CC2)C1` has a tissue uptake of 3.73 ± 0.41 %ID/g (C57BL/6 mouse male, bone; intravenous, 3.7 MBq, 15 min).
`CCOP(=O)([O-])CNC(=O)CN1CCN(CC(=O)NCP(=O)([O-])OCC)CCN(CC(=O)NCP(=O)([O-])OCC)CCN(CC(=O)NCP(=O)([O-])OCC)CC1.[177Lu+3]` gave a tissue uptake of 0.005 ± 0.002 % injected dose/g (Sprague-Dawley rat, blood; intravenous (tail vein), dose not given, 2 h).
`CN(C)[C@H]1C[C@@]23CC[C@@]4(O2)C(=CC[C@]2(C)[C@@H](c5ccc6ccncc6c5)CC[C@H]24)C=C3[C@@H](O)[C@@H]1O` has an inhibition of 7.9% (MATK (Homo sapiens, UniProt P42679); ATP probe labelling, inhibitor, KiNativ profiling; 1 µM).
With `Cc1cc(-c2ccc3ccccc3c2)nnc1NCCN1CCN(C)CC1` the inhibition was 0% (ABCC2 (Homo sapiens, UniProt Q92887); transporter uptake, inhibitor; 10 µM).
For `CC(C)C[C@@H](NC(=O)[C@@H](CCCNC(=N)N)NC(=O)[C@@H](Cc1c[nH]cn1)NC(=O)[C@@H](Cc1c[nH]c2ccccc12)NC(=O)[C@@H](Cc1c[nH]cn1)NC(=O)[C@@H](Cc1ccccc1)NC(=O)[C@H](NC(=O)[C@@H](Cc1ccc(O)cc1)NC(=O)CNC(=O)CNC(=O)CCOCCOCCOCCNC(=O)CN1CCN(CC(=O)O)CCN(CC(=O)O)CC1)[C@H](C)O)C(=O)N[C@H](CC(N)=O)C(=O)N1CCC[C@@H]1C(=O)O` [gallium-68 labelled], the tissue uptake was 0.84 ± 0.32 %ID/g (C57BL/6 mice, male, stomach; intravenous, 1.85 MBq, 60 min, added: blocking antibody).
`CSCC[C@H](NC(=O)CNC(=O)[C@H](CCCCN)NC(=O)[C@H](CC(C)C)NC(=O)[C@@H]1CCCN1C(=O)[C@H](CO)NC(=O)[C@H](Cc1c[nH]cn1)NC(=O)[C@H](Cc1c[nH]c2ccccc12)NC(=O)[C@H](CCCNC(=N)N)NC(=O)[C@H](CC(C)C)NC(=O)[C@H](CCCNC(=N)N)NC(=O)[C@H](Cc1c[nH]c2ccccc12)NC(=O)[C@H](CS)NC(=O)CCCCCNC(=O)CN1CCN(CC(=O)O)CCN(CC(=O)O)CCN(CC(=O)O)CC1)C(=O)O` [copper-64 labelled] has a tissue uptake of 0.86 %ID/g (ex vivo biodistribution; male C57BL/6J mice, testis; intravenous, 1.85 MBq, 2 h, B16-F10 tumour-bearing).
With `CC[C@H](C)[C@H](NC(=O)[C@H](CCCNC(=N)N)NC(=O)[C@H](CCCCN)NC(=O)[C@H](Cc1ccc(O)cc1)NC(=O)[C@H](CC(=O)O)NC(=O)[C@H](C)NC(=O)CNC(=O)CCOCCOCCOCCNC(=O)CN1CCN(CC(=O)O)CCN(CC(=O)O)CCN(CC(=O)O)CC1)C(=O)N[C@H](C(=O)N[C@@H](CC(C)C)C(=O)N[C@@H](CCCCN)C(=O)N[C@H](C(=O)N[C@@H](CC(N)=O)C(N)=O)C(C)C)[C@@H](C)O` [copper-64 labelled] the tissue uptake was 0.533 ± 0.211 %ID/g (ex vivo gamma counting; C57BL/6J male mice, B16-F10 tumour, testis; intravenous, 1.85 MBq, 100 min).
`O=C1NC2(CC2)COc2ncc(F)cc2[C@H]2COCCN2c2ccn3ncc1c3n2`: “organ-to-brain weight ratio” 38.7 ± 12.5% (Sprague-Dawley rat, female, uterus; oral, 5 mg/kg/day, 4 weeks dosing, end of recovery).
`CCCC[C@H]1C(=O)N(C)[C@@H](CCCC)C(=O)N[C@@H](CCCNC(=O)CN2CCN(CC(=O)O)CCN(CC(=O)O)CCN(CC(=O)O)CC2)C(=O)N[C@H](C(=O)NCC(N)=O)CSCC(=O)N[C@@H](Cc2ccc(O)cc2)C(=O)N(C)[C@@H](C)C(=O)N[C@@H](CC(N)=O)C(=O)N2CCC[C@H]2C(=O)N[C@@H](Cc2c[nH]cn2)C(=O)N[C@@H](CC(C)C)C(=O)N(C)CC(=O)N[C@@H](Cc2c[nH]c3ccccc23)C(=O)N[C@@H](CO)C(=O)N[C@@H](Cc2c[nH]c3ccccc23)C(=O)N1C` [gallium-68 labelled] gave a tissue uptake of 4.35 ± 0.9 %ID/g (NOD/SCID mice with CHO-hPD-L1 xenograft, skin; 10 min post injection).

Excerpt of the above:
`O=C1NC2(CC2)COc2ncc(F)cc2[C@H]2COCCN2c2ccn3ncc1c3n2`: “organ-to-brain weight ratio” 38.7 ± 12.5% (Sprague-Dawley rat, female, uterus; oral, 5 mg/kg/day, 4 weeks dosing, end of recovery).
For `CC(C)C[C@@H](NC(=O)[C@@H](CCCNC(=N)N)NC(=O)[C@@H](Cc1c[nH]cn1)NC(=O)[C@@H](Cc1c[nH]c2ccccc12)NC(=O)[C@@H](Cc1c[nH]cn1)NC(=O)[C@@H](Cc1ccccc1)NC(=O)[C@H](NC(=O)[C@@H](Cc1ccc(O)cc1)NC(=O)CNC(=O)CNC(=O)CCOCCOCCOCCNC(=O)CN1CCN(CC(=O)O)CCN(CC(=O)O)CC1)[C@H](C)O)C(=O)N[C@H](CC(N)=O)C(=O)N1CCC[C@@H]1C(=O)O` [gallium-68 labelled], the tissue uptake was 0.84 ± 0.32 %ID/g (C57BL/6 mice, male, stomach; intravenous, 1.85 MBq, 60 min, added: blocking antibody).
